Assay results pooled from the literature.
Parts stem from different laboratories: compare values within a part only.
Chain of UniProt Q02763 (whole entry, looked up): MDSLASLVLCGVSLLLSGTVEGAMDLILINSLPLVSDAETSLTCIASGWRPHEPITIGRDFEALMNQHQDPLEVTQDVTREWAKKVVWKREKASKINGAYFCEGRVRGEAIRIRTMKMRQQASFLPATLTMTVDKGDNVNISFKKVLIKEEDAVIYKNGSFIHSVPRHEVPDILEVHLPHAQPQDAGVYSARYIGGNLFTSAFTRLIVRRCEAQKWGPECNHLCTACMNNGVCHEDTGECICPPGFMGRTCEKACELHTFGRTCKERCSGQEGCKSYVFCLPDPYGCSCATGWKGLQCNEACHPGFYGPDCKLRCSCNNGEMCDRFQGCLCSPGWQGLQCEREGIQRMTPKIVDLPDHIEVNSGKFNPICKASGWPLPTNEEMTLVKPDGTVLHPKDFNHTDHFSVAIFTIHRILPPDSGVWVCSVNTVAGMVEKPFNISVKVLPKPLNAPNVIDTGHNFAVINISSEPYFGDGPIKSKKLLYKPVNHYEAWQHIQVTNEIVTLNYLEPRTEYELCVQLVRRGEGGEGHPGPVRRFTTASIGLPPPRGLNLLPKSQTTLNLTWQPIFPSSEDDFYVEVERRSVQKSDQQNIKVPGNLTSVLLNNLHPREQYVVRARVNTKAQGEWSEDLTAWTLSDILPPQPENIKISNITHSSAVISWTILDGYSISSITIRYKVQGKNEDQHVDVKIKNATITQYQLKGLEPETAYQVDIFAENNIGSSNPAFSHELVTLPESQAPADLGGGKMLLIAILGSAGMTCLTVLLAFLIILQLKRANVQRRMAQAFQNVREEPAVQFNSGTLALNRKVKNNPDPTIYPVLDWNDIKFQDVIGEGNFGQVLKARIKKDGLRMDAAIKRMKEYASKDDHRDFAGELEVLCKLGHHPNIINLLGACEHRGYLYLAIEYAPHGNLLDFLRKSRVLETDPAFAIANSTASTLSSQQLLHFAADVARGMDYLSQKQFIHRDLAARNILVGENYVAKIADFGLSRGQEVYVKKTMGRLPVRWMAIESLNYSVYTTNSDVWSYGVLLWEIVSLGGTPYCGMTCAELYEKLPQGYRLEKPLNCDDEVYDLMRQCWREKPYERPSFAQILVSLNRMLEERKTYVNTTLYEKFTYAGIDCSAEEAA
Chain of UniProt Q6P3R8 (whole entry, looked up): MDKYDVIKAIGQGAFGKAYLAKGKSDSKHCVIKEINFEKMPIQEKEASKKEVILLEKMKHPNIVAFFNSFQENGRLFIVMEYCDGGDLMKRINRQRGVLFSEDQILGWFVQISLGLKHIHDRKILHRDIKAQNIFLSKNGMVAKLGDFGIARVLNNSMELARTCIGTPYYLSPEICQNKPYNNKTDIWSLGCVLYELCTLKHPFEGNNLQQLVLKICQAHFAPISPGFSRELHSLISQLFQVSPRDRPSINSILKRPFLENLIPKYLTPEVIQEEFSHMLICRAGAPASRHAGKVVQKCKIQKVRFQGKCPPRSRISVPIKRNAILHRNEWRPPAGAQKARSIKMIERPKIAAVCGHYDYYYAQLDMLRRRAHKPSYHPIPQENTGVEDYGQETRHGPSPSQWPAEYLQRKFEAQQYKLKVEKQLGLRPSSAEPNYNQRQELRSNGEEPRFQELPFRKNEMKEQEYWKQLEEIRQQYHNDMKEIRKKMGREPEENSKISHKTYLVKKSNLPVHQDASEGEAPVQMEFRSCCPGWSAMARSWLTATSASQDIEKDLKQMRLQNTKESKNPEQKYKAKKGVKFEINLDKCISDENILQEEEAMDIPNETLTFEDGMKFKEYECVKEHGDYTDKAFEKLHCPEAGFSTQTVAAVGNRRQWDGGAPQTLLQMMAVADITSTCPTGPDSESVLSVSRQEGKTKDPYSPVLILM
Chain of UniProt Q9Y6M4 (whole entry, looked up): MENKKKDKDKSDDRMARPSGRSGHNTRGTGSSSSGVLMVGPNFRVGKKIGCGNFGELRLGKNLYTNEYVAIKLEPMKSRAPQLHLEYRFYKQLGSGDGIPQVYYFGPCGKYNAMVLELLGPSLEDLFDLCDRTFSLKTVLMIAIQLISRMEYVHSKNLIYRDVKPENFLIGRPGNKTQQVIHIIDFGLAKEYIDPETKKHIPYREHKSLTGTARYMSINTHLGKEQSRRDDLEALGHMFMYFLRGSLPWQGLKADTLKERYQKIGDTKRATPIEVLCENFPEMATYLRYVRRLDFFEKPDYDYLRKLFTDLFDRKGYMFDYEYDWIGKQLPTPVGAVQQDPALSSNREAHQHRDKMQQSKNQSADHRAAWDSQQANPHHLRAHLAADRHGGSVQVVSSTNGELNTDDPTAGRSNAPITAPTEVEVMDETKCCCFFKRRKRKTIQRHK
Chain of UniProt Q96J92 (whole entry, looked up): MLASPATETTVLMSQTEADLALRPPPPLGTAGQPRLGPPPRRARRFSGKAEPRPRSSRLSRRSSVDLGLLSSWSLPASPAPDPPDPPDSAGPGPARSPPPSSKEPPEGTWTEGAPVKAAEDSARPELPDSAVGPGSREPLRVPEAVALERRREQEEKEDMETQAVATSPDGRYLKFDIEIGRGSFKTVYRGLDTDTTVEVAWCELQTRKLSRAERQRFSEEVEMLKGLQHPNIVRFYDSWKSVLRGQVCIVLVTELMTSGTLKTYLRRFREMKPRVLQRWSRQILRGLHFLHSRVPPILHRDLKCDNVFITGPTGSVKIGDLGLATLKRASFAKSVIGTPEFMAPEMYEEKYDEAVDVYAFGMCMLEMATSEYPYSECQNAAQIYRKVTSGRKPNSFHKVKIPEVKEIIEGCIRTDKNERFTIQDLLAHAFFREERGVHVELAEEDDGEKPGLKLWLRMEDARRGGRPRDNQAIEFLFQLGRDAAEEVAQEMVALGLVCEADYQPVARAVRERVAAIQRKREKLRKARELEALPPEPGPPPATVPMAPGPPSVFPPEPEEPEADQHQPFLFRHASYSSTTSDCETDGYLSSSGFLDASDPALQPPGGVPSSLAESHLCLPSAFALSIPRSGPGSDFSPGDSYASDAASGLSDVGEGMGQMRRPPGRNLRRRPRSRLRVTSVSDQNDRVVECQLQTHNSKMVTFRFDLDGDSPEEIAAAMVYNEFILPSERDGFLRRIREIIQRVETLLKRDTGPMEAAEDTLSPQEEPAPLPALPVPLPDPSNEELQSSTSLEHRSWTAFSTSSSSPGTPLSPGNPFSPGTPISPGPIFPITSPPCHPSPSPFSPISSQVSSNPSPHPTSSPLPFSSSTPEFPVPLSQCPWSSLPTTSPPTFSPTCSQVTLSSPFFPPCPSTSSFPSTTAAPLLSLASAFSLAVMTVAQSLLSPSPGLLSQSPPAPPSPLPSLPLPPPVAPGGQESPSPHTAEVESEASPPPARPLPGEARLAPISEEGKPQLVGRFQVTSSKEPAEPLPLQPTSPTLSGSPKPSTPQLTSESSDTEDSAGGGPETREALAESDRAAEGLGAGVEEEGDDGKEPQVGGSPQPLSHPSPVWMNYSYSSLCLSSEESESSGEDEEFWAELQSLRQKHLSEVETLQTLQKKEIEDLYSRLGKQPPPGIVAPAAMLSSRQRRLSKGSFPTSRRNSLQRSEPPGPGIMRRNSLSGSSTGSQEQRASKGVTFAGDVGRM
Chain of UniProt Q8TBX8 (whole entry, looked up): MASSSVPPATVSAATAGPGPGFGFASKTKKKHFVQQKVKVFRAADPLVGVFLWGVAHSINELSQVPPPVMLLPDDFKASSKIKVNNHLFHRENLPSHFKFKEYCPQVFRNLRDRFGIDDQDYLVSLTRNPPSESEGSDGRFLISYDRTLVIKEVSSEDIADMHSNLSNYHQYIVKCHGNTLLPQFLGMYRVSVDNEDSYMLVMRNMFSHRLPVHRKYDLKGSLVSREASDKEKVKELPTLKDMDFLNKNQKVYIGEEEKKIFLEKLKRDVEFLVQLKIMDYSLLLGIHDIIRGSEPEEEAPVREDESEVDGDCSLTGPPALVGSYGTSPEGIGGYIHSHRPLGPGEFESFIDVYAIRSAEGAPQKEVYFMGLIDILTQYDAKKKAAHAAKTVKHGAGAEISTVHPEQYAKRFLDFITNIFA

Series 1
Target: Activin receptor type-1-like (ACVRL1, Homo sapiens, UniProt P37023)
Chain of UniProt P37023 (whole entry, looked up): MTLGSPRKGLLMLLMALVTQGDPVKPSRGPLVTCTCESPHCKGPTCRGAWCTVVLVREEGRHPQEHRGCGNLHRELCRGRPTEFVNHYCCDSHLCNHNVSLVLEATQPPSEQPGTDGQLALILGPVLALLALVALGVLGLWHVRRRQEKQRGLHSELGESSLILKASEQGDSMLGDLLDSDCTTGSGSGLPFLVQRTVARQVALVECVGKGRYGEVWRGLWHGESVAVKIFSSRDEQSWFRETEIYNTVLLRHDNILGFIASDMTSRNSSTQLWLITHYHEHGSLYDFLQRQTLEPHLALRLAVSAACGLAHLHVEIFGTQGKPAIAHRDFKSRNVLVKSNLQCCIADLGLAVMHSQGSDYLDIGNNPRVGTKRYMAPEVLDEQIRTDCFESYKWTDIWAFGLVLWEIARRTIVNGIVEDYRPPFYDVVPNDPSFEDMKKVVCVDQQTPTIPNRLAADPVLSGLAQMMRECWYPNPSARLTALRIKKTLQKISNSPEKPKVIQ
Effect on: enzyme activity
Mode: inhibitor
Concentration: 0.5 µM
Baseline: control
Quantity: remaining activity
CN(C)S(=O)(=O)c1ccc2c(c1)/C(=C/c1cc3c([nH]1)CCCC3)C(=O)N2: 102%
COc1ccc(COc2ccc(Cc3cnc(N)nc3N)cc2OC)cc1: 101%
O=C1Nc2ccc(Br)cc2/C1=C/c1cc2c([nH]1)CCCC2: 103%
O=C(c1cc2cc(O)ccc2[nH]1)c1cc2cc(O)ccc2[nH]1: 98.4%
COc1ccc2c(c1)c(C1=C(c3c[nH]c4ccccc34)C(=O)NC1=O)cn2CCCN(C)C: 87.8%
O=C1NC(=O)c2c1c1c3ccccc3[nH]c1c1[nH]c3cc(Br)ccc3c21: 109%
CN1CCN(c2ccc3nc(-c4c(N)c5c(F)cccc5[nH]c4=O)[nH]c3c2)CC1: 125%
O=Nc1c(-c2c(O)[nH]c3cc(Br)ccc23)[nH]c2ccccc12: 103%
O=C1Nc2ccccc2/C1=C\c1c(Cl)[nH]c2ccccc12: 99.8%
O=c1cc(N2CCOCC2)oc2c(-c3ccccc3)cccc12: 91.9%

Series 2
Organism: Sarcocystis neurona
Effect on: parasite growth
Concentration: 10 µM
Time: 96 h
Notes: second screen
Baseline: untreated
Quantity: log2 fold change
COc1ccc(-c2cc(=O)c3c(OC)c(OC)c(OC)c(OC)c3o2)cc1OC: -0.0254
N[C@@H](C(=O)N[C@@H]1C(=O)N2C(C(=O)O)=C(CSc3c[nH]nn3)CS[C@H]12)c1ccc(O)cc1: 0.33
Cn1nnc2c(C(N)=O)ncn2c1=O: 0.24
CN(C)c1nc(N(C)C)nc(N(C)C)n1: 0.19
COC(=O)C1=C(C)NC(C)=C(C(=O)OC)C1c1ccccc1[N+](=O)[O-]: 0.27
Cn1cc[nH]c1=S: 0.22
Cc1onc(-c2c(Cl)cccc2Cl)c1C(=O)N[C@@H]1C(=O)N2[C@@H]1SC(C)(C)[C@@H]2C(=O)O: 0.39
COc1ccccc1OCC(O)COC(N)=O (stereo not drawn): 0.23
NCc1ccc(S(N)(=O)=O)cc1: 0.54
O=C(O)Cc1ccccc1Nc1c(Cl)cccc1Cl: 0.08
COC1=C(OC)C(=O)C(CCCCCCCCCCO)=C(C)C1=O: 0.3

Series 3
Compound: Cn1nc(C(=O)NCc2ccc(C(=O)O)cc2)cc1-c1ccc2[nH]ccc2c1
Effect on: cell-free assay
Technique: competition with immobilised ligand
Concentration: 0.1 µM
Quantity: remaining binding
INSRR (Homo sapiens, UniProt P14616): 98%
PIP4K2C (Homo sapiens, UniProt Q8TBX8): 63%
STK35 (Homo sapiens, UniProt Q8TDR2): 94%
WNK4 (Homo sapiens, UniProt Q96J92): 100%
Insulin receptor (INSR, Homo sapiens, UniProt P06213): 100%
CSNK1G3 (Homo sapiens, UniProt Q9Y6M4): 94%
SRC (Homo sapiens, UniProt P12931): 100%
MET (Homo sapiens, UniProt P08581): 100%
NEK5 (Homo sapiens, UniProt Q6P3R8): 48%
TNK2 (Homo sapiens, UniProt Q07912): 100%
TEK (Homo sapiens, UniProt Q02763): 82%
MET (Homo sapiens, UniProt P08581, Y1235D): 100%
PIK3CA (Homo sapiens, UniProt P42336, E542K): 88%
EGFR (Homo sapiens, UniProt P00533, L858R): 100%
SIK2 (Homo sapiens, UniProt Q9H0K1): 90%
KIT (Homo sapiens, UniProt P10721, D816H): 81%
HASPIN (Homo sapiens, UniProt Q8TF76): 77%
Tyrosine-protein kinase ABL1, phosphorylated (ABL1, Homo sapiens, UniProt P00519, T315I): 71%

Series 4
Cell line: HaCaT
Concentration: 100 µM
Time: 60 h
Quantity: viability
Cc1c(CNCS(=O)(=O)O)c(=O)n(-c2ccccc2)n1C: 147%
CCCCCCCCCCCCCCCCOc1nc2ccc(C)cc2c(=O)o1: 134%
CC(C)NCC(O)COc1cccc2[nH]c3ccccc3c12 (stereo not drawn): 16.3%
COc1ccc(CN(CCN(C)C)c2ccccn2)cc1: 146%
C=CC1=C(C(=O)O)N2C(=O)[C@@H](NC(=O)/C(=N\OCC(=O)O)c3csc(N)n3)[C@H]2SC1: 116%
Cc1c(-c2ccc(O)cc2)n(Cc2ccc(OCCN3CCCCCC3)cc2)c2ccc(O)cc12: 22.1%

Repeated from above (series 3):
Insulin receptor (INSR, Homo sapiens, UniProt P06213): 100%
CSNK1G3 (Homo sapiens, UniProt Q9Y6M4): 94%
SRC (Homo sapiens, UniProt P12931): 100%
MET (Homo sapiens, UniProt P08581): 100%
NEK5 (Homo sapiens, UniProt Q6P3R8): 48%
TNK2 (Homo sapiens, UniProt Q07912): 100%
